Assay results collected from several papers.
Each numbered part is a random draw from the data of one study; scales do not carry over between parts. Substitutions count along the parent as printed.

Block 1
Target: RNA binding protein fox-1 homolog 2, RRM domain, GST-SBP tag (RBFOX2, Homo sapiens, UniProt O43251-10, residues 100-194)
Method: RNA Bind-n-Seq
Form: RNA
Medium: in vitro
Concentration: 365 nM
Notes: natural RNA segment, single round, ends assumed
Relative to: no-protein control
Direction: higher = stronger binding
Constant ends, left off below: GGGAGUUCUACAGUCCGACGAUC … UGGAAUUCUCGGGUGCCAA
Construct (chain): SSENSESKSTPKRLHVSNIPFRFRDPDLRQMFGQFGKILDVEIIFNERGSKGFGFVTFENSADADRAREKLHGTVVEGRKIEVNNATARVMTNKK
| Strand | RBNS enrichment (R) |
| --- | --- |
| AAACUUGGUUGACAAAAUUUUGGAUCAACUGAAAAAAGCAUGACUUUUGAAAUCUCUGAAUGCCUUGGUUCUCAGUAUUAUCAUUCUUUAUUGAAUUUAUUUCUUAUUAA | 2.47 |
| UUUAAGAAAUGUAUCCUGUUUGCAAAGGCACAGUAAAGUUGCAUCUUAUAGACUAUAGGCAAUAAAGCUAACAAUAAACCUUAUUUAACACAAACCACAUCCAUAUCCUC | 0.677 |
| CUAACAGAGAAGGGUAGACAGUUUGUGUUAAAUGUUGGCAUUUACUUGUAUUGACCAAAGUUUUGCAGCUCUACUAUAUUCUGUGCUCAGGACUAAAAUGCUGUUAAUUU | 0.475 |
| GAGACCUGGCCCUGCUACGGCCCUGCCACAGCACCACCAUUCCCCAAGGAGGCUCUGCACAGCUCACUUGUGGGGAAGACGGGACAUGCUUCCAGAUUUUCUUUGGGGGU | 0.276 |
| GCCACCCAGUGGAAGGACACUCUUGGCUCGUUUGGGCUCAAGGCACCGCAGCCUGUCAGCCAACAUUGCCUUGCAUUUGUACCUUAUUGAUCUUUGCCCAUGGAAGUCUC | 0.39 |
| UUAAGAGAAACUACUUGGCCAAACUGGCCAAGACGCAGCAAGCAGCAGCAGGAACAAAGCAGGCUUACUGCUGUCAACACUGCUUAAAAUGCUUUCAUGUCCUAGGUAAA | 0.291 |
| AUAACUUUGUAAAAAGCAUGUAUGUAUUUAUAGUGUUUUAGAUUUUUCUAACUUUUAUAUCUUAAAAGCAGAGCACCUGUUUAAGCAUUGUACCCCUAUUGUUAAAGAUU | 4.05 |
| CCUGCUGUUAAAUAAAGAAUUUCCUUGUCUGAUUUCCUUUCAAUAAAAGUUUUUCUUUGUUUCAGGUUUCAGGUUUUCAGCCUAUAUUUCUUUAGAAUUUAGUGAGAAUU | 0.494 |

Block 2
Target: Interferon regulatory factor 5, full length, phosphomimetic (IRF5, Homo sapiens, UniProt Q13568-2, residues 1-514, K96S/S451D/S453D/S456D/S462D)
Method: protein-binding microarray
Form: double-stranded DNA, one strand shown
Medium: in vitro
Concentration: 250 nM
Notes: 60-bp whole probe
Added: salmon DNA 0.4 mg/ml
Relative to: random background probes
Direction: higher = stronger binding
Constant ends, left off below: GCCTAGCAC … GTCTTGATTCGCTTGACGCTGCTG
| Strand | log fluorescence [z-score] |
| --- | --- |
| GACGGTTCCCTTTCCCTGACGTGCTAG | 0.282 |
| GACGGACTGCTTCTGCTGACGTGCTAG | -0.707 |
| TTAGATATCTGACTGGATTAGTGCTAG | 0.191 |
| TTAGGAATCCTTCTCCTTTAGTGCTAG | 0.000608 |
| TTAGGTATCGACCTTCGGTTAGTGCTA | 2.97 |
| TTAGATTTCAGAATGGATTAGTGCTAG | 0.909 |
| CTCCCCCTCCCCCTCAGATCGTGCTAG | -0.69 |
| TTAGTTCTCGGTCTCGGTTAGTGCTAG | 1.73 |
| TATCATTTAATTATATGGCTGTGCTAG | 5.58 |
| CTTACTTTATGTAGGAAGTCGTGCTAG | 0.223 |
| GACCCTGGACACTTCACGTAGTGCTAG | -0.675 |
| TTAGGTCTCGGTTTCGATTAGTGCTAG | 7.79 |
| GACGATATCAGTATCAAGACGTGCTAG | 1.78 |
| TTTCTTTTATGCTCTTTCTACGTGCTA | 5.84 |
| TTAGGACTGGAAACTGGGTTAGTGCTA | -0.175 |
| TGGTAATTCTTTGCTCATTTTGTGCTA | 0.469 |
| TCAGGTTTCGGTCTCGGTTAGTGCTAG | 10.2 |
| GACGCTATCGACACTGGGGACGTGCTA | 2.09 |
| TCACTTTTCATTACTGCACTGTGCTAG | 1.97 |

Block 3
Target: FOS, bZIP domain (human)
Method: DHFR protein complementation
Medium: yeast
Notes: single substitutions, most at no-binding floor
Relative to: wild-type JUN-FOS pair
Direction: higher = stronger binding
Parent: JUN, bZIP domain (human); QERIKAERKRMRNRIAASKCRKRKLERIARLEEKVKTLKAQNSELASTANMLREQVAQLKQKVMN; partner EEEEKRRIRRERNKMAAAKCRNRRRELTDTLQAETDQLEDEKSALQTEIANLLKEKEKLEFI
| Change | binding fitness |
| --- | --- |
| V35G | -1.08 natural log |
| L31Y | -0.35 natural log |
| I28Y | -0.251 natural log |
| M51Q | -0.00911 natural log |
| A40N | -0.119 natural log |
| L31R | -0.723 natural log |
| K39C | -0.757 natural log |
| V56K | -1.34 natural log |
| A49V | -0.0951 natural log |
| E54G | -0.123 natural log |
| T48W | -0.162 natural log |
| N42C | 0.0991 natural log |
| E44G | -0.301 natural log |
| A49L | -0.0851 natural log |
| E33G | -0.299 natural log |
| Q55T | -0.0675 natural log |
| A29E | -0.122 natural log |
| E32L | -0.0205 natural log |
| R30E | 0.199 natural log |
| V56Y | -1.35 natural log |
| A46K | 0.0856 natural log |
| V35L | -0.169 natural log |
| M51F | -0.12 natural log |

Block 4
Target: CCND3, cyclin fold, Cln2 fusion (human)
Method: yeast growth competition, sequencing
Medium: yeast
Notes: weak parent motif
Relative to: not given
Direction: higher = stronger binding
Parent: CDKN1A docking peptide (human); SKACRRLFGPVDS; partner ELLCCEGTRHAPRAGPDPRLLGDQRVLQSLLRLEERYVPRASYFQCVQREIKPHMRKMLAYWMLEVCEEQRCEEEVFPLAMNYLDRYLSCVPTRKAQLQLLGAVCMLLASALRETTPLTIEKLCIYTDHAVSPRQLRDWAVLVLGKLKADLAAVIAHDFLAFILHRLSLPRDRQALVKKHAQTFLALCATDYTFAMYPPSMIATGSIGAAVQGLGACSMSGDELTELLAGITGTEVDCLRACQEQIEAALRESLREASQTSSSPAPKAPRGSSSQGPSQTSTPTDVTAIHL
| Change | normalised enrichment score |
| --- | --- |
| R6E | 0.145 |
| F8C | 0.171 |
| C4S | 0.496 |
| G9D | 0.228 |
| P10R | 0.871 |
| L7V | 0.32 |
| F8R | 0.182 |
| L7H | 0.359 |
| A3Y | -0.0437 |
| A3D | 0.123 |
| C4R | 0.23 |
| A3K | 0.738 |
| D12K | 0.12 |
| G9W | 0.365 |
| L7C | 0.286 |
| L7N | 0.316 |
| P10S | 0.365 |
| R6W | 0.0944 |

Some of these lines once more (block 2):
| Strand | log fluorescence [z-score] |
| --- | --- |
| TATCATTTAATTATATGGCTGTGCTAG | 5.58 |
| CTTACTTTATGTAGGAAGTCGTGCTAG | 0.223 |
| GACCCTGGACACTTCACGTAGTGCTAG | -0.675 |
| TTAGGTCTCGGTTTCGATTAGTGCTAG | 7.79 |
| GACGATATCAGTATCAAGACGTGCTAG | 1.78 |
| TTTCTTTTATGCTCTTTCTACGTGCTA | 5.84 |
| TTAGGACTGGAAACTGGGTTAGTGCTA | -0.175 |
| TGGTAATTCTTTGCTCATTTTGTGCTA | 0.469 |
| TCAGGTTTCGGTCTCGGTTAGTGCTAG | 10.2 |
| GACGCTATCGACACTGGGGACGTGCTA | 2.09 |
| TCACTTTTCATTACTGCACTGTGCTAG | 1.97 |
